Results of several laboratories.
A part holds a random share of what one study measured.

Block 1 — method: universal PBM; form: double-stranded DNA, one strand shown; matrix: in vitro; tested at: 600 nM; reading: higher = stronger binding; measurement: E-score
Target: Sal-like protein 4, full length isoform A (SALL4, Homo sapiens, UniProt Q9UJQ4, residues 1-1053)
UniProt Q9UJQ4, sequence (whole entry, looked up): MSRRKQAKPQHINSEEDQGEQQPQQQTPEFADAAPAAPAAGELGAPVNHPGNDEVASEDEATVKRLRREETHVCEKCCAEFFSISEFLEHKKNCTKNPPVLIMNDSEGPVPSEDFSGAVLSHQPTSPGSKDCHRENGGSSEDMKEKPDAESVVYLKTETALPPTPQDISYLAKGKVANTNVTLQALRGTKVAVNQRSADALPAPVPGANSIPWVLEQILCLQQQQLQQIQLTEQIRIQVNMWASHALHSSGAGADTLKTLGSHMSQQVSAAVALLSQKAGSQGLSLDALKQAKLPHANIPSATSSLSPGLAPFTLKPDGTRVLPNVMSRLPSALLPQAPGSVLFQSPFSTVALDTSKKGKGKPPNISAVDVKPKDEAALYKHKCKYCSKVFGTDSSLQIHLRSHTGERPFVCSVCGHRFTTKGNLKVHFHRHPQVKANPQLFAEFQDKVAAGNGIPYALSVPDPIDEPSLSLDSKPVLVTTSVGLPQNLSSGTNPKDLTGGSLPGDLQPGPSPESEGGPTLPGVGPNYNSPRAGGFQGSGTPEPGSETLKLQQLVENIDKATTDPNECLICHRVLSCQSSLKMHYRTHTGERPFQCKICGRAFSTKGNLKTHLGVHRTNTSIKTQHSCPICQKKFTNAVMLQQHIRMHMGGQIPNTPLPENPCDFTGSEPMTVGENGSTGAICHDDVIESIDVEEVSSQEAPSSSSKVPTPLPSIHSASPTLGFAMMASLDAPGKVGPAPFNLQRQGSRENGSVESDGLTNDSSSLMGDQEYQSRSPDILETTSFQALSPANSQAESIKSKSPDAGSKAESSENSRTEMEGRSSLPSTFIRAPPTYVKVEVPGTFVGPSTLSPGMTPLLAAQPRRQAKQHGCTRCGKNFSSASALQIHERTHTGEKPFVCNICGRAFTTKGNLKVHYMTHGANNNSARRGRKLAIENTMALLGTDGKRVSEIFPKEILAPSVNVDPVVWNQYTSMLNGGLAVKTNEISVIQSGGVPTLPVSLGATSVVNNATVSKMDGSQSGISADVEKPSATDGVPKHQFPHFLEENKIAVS
Notes: 8-mer, flanks averaged, mean of replicates
CGGTTGAG: -0.0889
CCAAAGAG: -0.0115
CGAAATAA: 0.241
ACTTGGTG: 0.00717
AACAGCAC: 0.0404
GGGTACAA: -0.0206
ACCGGTAG: -0.268
CGCGATGA: -0.000545
ACGGGCGC: -0.27
GTACACCA: -0.103
GATACGCC: -0.191
CCCACCAG: -0.268
CGCAGAGC: -0.193
GATCCCCC: -0.309
ACTTGTCG: -0.00043
CATACACC: -0.0786
CTCTACAA: 0.076

Block 2 — method: protein-binding microarray; form: double-stranded DNA, one strand shown; matrix: in vitro; tested at: 2200 nM top; notes: 60-bp whole probe; with: salmon DNA 0.4 mg/ml; reference: random background probes; reading: higher = stronger binding; measurement: fitted relative affinity; all sequences stand within: GCCTAGCAC … GTCTTGATTCGCTTGACGCTGCTG
Target: Interferon regulatory factor 7, full length, phosphomimetic (IRF7, Homo sapiens, UniProt Q92985, residues 1-503, S471D/S472D/S475D/S476D/S477D/S483D/S484D/S487D)
UniProt Q92985, sequence (whole entry, unmodified, looked up): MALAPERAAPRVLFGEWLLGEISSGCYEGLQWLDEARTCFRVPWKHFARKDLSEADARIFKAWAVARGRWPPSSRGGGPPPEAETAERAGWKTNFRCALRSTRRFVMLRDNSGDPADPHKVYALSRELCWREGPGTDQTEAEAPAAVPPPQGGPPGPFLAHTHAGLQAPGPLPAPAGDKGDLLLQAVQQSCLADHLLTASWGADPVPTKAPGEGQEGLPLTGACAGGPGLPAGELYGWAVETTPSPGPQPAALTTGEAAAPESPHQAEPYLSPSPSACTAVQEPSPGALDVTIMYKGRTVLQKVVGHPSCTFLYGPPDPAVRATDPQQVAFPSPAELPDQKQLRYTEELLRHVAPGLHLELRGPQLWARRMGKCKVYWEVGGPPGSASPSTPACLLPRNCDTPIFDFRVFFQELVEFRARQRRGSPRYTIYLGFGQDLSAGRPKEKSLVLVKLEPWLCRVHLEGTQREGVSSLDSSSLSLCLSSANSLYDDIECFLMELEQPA
GACGGTCTCGGTCTCGGTACGTGCTAG: 0.261 z-score
CTAATTTCCATTTTCTAAATGTGCTAG: 4.48 z-score
GACGGACTGGGTATCGGGACGTGCTAG: -0.793 z-score
TGAGGTCTCCTACTGCTTTAGTGCTAG: 0.213 z-score
GATGTTTTAGGTCCCTTTTCGTGCTAG: 2.22 z-score
TTAGATATCAGTATCTATTAGTGCTAG: 0.304 z-score
TTAGGACTGGTCTTTCGGTTAGTGCTA: 2.39 z-score
TGCATTCCCTTTCTCAACCTGTGCTAG: 3.24 z-score
GACGGTGTCCTACTGCTGACGTGCTAG: -0.000908 z-score
GACGGTCTCCTTTTCCTCACGTGCTAG: 1.48 z-score
GTACATCTCTCTTAAATAGGGTGCTAG: 0.808 z-score
GAGTTTCTATTTTCTGAATGGTGCTAG: 6.23 z-score
TTAGGACTGGCGACTGGGTTAGTGCTA: -1.11 z-score
TTAGGACTGGGGACTGGGTTAGTGCTA: -0.954 z-score
GACGGACTGGGGTATCGGGATGTGCTA: -0.72 z-score
ATAGGTTTCGGTTCCGGTTAGTGCTAG: 11.8 z-score
GACGATATCAGTGTCGAGACGTGCTAG: 0.193 z-score
GACGATTTCAGTCTCGAGTCGTGCTAG: 1.34 z-score
AGCACTCCAGAGGCAGAGGCGTGCTAG: -0.752 z-score
TATGTCTGGCCCAAGCAGCCGTGCTAG: -0.455 z-score
TCAGTCACCCATCTCAAACTGTGCTAG: 0.909 z-score
TTAGATTTCGGGACTGGATTAGTGCTA: 0.941 z-score

Block 3 — method: RNA Bind-n-Seq; form: RNA; matrix: in vitro; tested at: 365 nM; reference: no-protein control; reading: higher = stronger binding; measurement: RBNS enrichment (R)
Target: RNA binding protein fox-1 homolog 2, RRM domain, GST-SBP tag (RBFOX2, Homo sapiens, UniProt O43251-10, residues 100-194)
Notes: natural RNA segment, single round, ends assumed
Target sequence (chain): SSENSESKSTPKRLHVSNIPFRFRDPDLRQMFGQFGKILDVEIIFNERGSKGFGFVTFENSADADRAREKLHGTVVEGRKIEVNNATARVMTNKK
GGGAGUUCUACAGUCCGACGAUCAUGCUAGUAGAAUCUAGUUUAAUUGUUUCAGGUGGAAAGUAUUCUUUGAGUUUCCAUAUUGAAUGUGUUUGGACUAAACAAACAAUAAACUACUGAUGUCUGCAGCAUUUUGGAAUUCUCGGGUGCCAA: 1.02
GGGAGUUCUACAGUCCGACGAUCGACUUUGAACACCCGAGGGGCUGUGCCCCAGCUCCCCACUCCCCCAGGGGCAAUGGCCCCAACCUCCCUUUCAGACUCCAUGAGCCCAGCCCCUAUGUGCCUAGAUGGUUUGGAAUUCUCGGGUGCCAA: 0.906
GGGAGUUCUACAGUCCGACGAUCUUCCUUCCGGUCUACAAGAGCUCUCAAGGCUGGGUCUGCCACCACUCUGCUUUGCCCAAGUGUGACAGCACUGGGGAGGAGAGACAGGAUAAAGGGCAGAUGUCAGCAAUUGGAAUUCUCGGGUGCCAA: 0.268
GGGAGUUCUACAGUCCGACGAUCGCAAUGUGGACUGUUUAGAAUUCUAACCAUUUAUGAUAUUCUGGCUGUCCAGGUGAGUGGAAAUUUUUGCAUAGAUUUGACUAGAUGAUUGGUGUAGGUGGCAGUGGAACUGGAAUUCUCGGGUGCCAA: 3.98
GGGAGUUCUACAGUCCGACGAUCAUCAGAAGAUCACUUAGACAACAUCUGAUAUUAAUGUGAUUCUUGCAUUCAAGACACUUGCAAAUGUCUUUUUCUAAGCAGUAGUUAGAAAGAGCUCAAUUAUAGUAUUAUGGAAUUCUCGGGUGCCAA: 0.435
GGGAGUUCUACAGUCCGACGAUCCAGGUUUUAGGGUCCUGCAAAAGGCUAGCUCGGCACUACACUAGGGAAUUUGCUCCUGUUCUGUCACUUGUCAUGGUCUUUCUUGGUAUUAAAGGCCACCAUUUGCACAAUGGAAUUCUCGGGUGCCAA: 0.7
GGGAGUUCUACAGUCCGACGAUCAUAAGAAAUAGGUUUAUUUUUCCAGUGUAAAUUUCAGAAUUUAAAGAAAACUGGUUGUAGUUUACUAUUUUACCUACCUAAAAACAGAUGUGAUGGCUCUUUAAGAAUUGUGGAAUUCUCGGGUGCCAA: 0.415
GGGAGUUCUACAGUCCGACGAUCUAAGGCCUAAGAUGCUCACAGAGGUCCCUCAUGACCUCCCUUCCCCAACUCCCGAAUCCUCUCUUGAGUGUGGACCUCAACACCUUGAGCCCUAGUAAAGGAACUAUGCAUGGAAUUCUCGGGUGCCAA: 5.91
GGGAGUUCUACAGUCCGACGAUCCUGGGUAAGGAGCAGUUGCUGGGUCAUUCCUUGGGCCCCGACCUGCCCGGGGAGUAGCCCUGGGGGAGAGAGGGCAGUGUUGCCUAUCCCAGAGGUCCCAGCAGUCACACUGGAAUUCUCGGGUGCCAA: 0.451
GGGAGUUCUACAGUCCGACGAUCAGAAACGAGAUCGGGAAGCAGAAAUAUAGUGCAAUAGUGCAACAUCUCUGAAUCCUUUUAAUCUAGAGAAGGCAUUUCAUAUUUGGGGGCUAAGGUUUCCAGUCAGAUGAUGGAAUUCUCGGGUGCCAA: 0.278
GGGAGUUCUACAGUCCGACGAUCUCUAUCUAUUUAAUUGGAUAUUGGACUCUGCUCAUAUAAGCUACAGACAAAAGCCAAAAGACUCUCGCUGUCCCUGUGCUGCUGGUAUUUCAUUCUCUGUAACUUCAGUUUGGAAUUCUCGGGUGCCAA: 0.385
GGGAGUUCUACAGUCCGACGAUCUGUUUUUGUUUUGUUUUUGUUUUUUGUUUUUUACAUAGUACCUUGAAAAUUAUGAAUUUUUUAUCCAUUACUAACCUUUAAUUUAAUCAAUCAUGUACUUUAGUUUAAUGUGGAAUUCUCGGGUGCCAA: 0.873

Block 4 — method: protein binding microarray; form: double-stranded DNA, one strand shown; matrix: in vitro; tested at: not given; reference: not given; reading: higher = stronger binding; measurement: E-score
Target: Histone acetyltransferase KAT6A, winged helix 1, GST fusion (KAT6A, Homo sapiens, UniProt Q92794, residues 1-85)
Notes: 8-mer, flanks averaged, mean of 2 arrays, mostly near background
Residues (chain): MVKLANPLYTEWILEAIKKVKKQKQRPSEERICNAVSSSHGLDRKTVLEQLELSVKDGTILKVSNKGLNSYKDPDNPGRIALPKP
GGAAGGTA: 0.154
AACCATTG: -0.037
AGATTCCT: -0.262
CCGGAAAC: 0.14
GCAACTTA: -0.102
GCCCAGAC: -0.162
CAGACACA: -0.292
ATGAGGCA: -0.223
GCGGATAC: 0.317
AGGCGCTG: 0.299
AATCCTCC: -0.114
GTCGAACA: -0.105
ACCGGTTA: 0.302
ATCTAGAT: -0.262
ACTCAACT: -0.251
CATGGTAC: 0.0508
ACTTTCGG: -0.171
AACGACCT: -0.0345
ATTATATA: -0.115
AGCTCGAA: -0.157
AAGCACCA: -0.202
TTCAAGAA: -0.267
TCCAAGAA: -0.139

Block 5 — method: DNA-protein interaction ELISA; form: double-stranded DNA, one strand shown; matrix: in vitro, bacterial lysate; tested at: not given; notes: whole dsDNA probe, crude lysate protein; reference: highest signal in screen; reading: higher = stronger binding; measurement: relative absorbance
Target: Probable WRKY transcription factor 50, DNA-binding domain (WRKY50, Arabidopsis thaliana, UniProt Q8VWQ5, residues 99-173)
Residues (chain): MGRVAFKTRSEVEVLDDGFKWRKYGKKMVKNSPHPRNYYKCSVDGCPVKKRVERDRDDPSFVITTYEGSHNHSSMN
AAAAAACTGGATGCGCTCACCAGTTAAAAA: 12.6 % of maximum
AAAAAACCGAGTGTTGCCAGTTGCAGAAAA: 14.4 % of maximum
AAAAAATATCGGGCACGGTCTTGTCTAAAA: 40.5 % of maximum
AAAAAAACCGCGTCGCGGCCCGGGAAAA: 23.1 % of maximum
AAAAAATTTGTTCGGGCTCATAACTGAAAA: 14 % of maximum
AAAAAACTACTACCTTTGCCTAAGCGAAAA: 13.6 % of maximum
AAAAAATGGTTTCAATTTTCCGTCCGAAAA: 17.9 % of maximum
AAAAAAATCTTTGCGTCGAGATTCTTAAAA: 17 % of maximum
AAAAAAAGCTTCTATAGCTCCATGGAAAA: 26.7 % of maximum
AAAAAACCGCTTACATTGCGTTGTCGAAAA: 10.9 % of maximum
AAAAAATAGACCCTGACCCACCATTGAAAA: 23.9 % of maximum
AAAAAAAGGTCATTGCTGCTGGTGTTAAAA: 63.4 % of maximum
AAAAAACGCTCCGTTTTTGCAATGCGAAAA: 12 % of maximum
AAAAAACGTTAACACTGATTTAGGGTAAAA: 12.5 % of maximum
AAAAAATGAGAGAATTTCCGGTTCAGAAAA: 27.9 % of maximum
AAAAAATTTCTCCTTCTTTGTTCTTCAAAA: 66.2 % of maximum
AAAAAATTTGTACTTTAAGTTTACATAAAA: 13.7 % of maximum
AAAAAAGAAATACCAGAAACTATCATAAAA: 34.6 % of maximum
AAAAAAAGTTCGCGGATTTCGGCCATAAAA: 17.3 % of maximum
AAAAAATAGCGACTTCGACTCTCAGTAAAA: 26.2 % of maximum
AAAAAATGGATCTTTACTTTAGGCCAAAAA: 49 % of maximum
AAAAAACCAACTCTCTTTCGGACTATAAAA: 37.3 % of maximum
